Published values collected from several papers.
Every numbered part comes from another study and shows a few of its results, in no order.

Study 1 — method: protein-binding microarray; molecule type: double-stranded DNA, one strand shown; matrix: in vitro; concentration: 250 nM; setting: 60-bp whole probe; with: salmon DNA 0.4 mg/ml; baseline: random background probes; direction: higher = stronger binding; constant ends, left off below: GCCTAGCAC … GTCTTGATTCGCTTGACGCTGCTG
Target: Interferon regulatory factor 7, full length, phosphomimetic (IRF7, Homo sapiens, UniProt Q92985, residues 1-503, S101K/S471D/S472D/S475D/S476D/S477D/S483D/S484D/S487D)
Sequence of UniProt Q92985 (whole entry, unmodified, looked up): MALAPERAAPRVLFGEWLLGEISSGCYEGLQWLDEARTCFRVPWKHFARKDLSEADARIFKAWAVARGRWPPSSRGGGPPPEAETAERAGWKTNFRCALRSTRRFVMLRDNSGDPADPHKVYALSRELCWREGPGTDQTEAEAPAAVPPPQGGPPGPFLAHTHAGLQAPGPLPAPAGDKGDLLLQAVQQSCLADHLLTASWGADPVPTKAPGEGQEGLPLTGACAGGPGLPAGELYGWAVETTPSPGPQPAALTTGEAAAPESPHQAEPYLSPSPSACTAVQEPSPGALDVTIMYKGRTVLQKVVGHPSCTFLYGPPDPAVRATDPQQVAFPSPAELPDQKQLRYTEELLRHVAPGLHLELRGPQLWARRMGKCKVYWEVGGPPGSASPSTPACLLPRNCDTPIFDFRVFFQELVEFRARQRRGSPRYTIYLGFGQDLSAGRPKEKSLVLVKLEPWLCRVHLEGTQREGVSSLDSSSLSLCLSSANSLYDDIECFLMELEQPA
Oligonucleotide | log fluorescence [z-score]
TTAGATTTCAGACTGGATTCGTGCTAG | 0.358
TTAGGTCTCCTTCTTCTTTAGTGCTAG | 0.632
TTAGGGTTCGACACTGGGTTAGTGCTA | -0.283
TCTCGCTTCATCTCCCAGACTGTGCTA | 3.59
GACGGACTGGACTATCGGGAGGTGCTA | -0.6
TTAGGTATCGGGTAACGGTTAGTGCTA | 0.416
GACGAGTTCGGGTTTCGAGACGTGCTA | 3.76
TTAGGTCCCCTACTGCTTTAGTGCTAG | 0.121
GTATATATAATATATATTCATGTGCTA | 0.401
TTAGGTATCGGCTTCGGTTAGTGCTAG | 0.941
TTAGGTATCGGGTTTCGTTTAGTGCTA | 7.69
ATTTTGAGGTGGAGAGATAAGTGCTAG | 0.202
TTAGAACTGGAGTATCGATTAGTGCTA | 0.0961
TCACCATTATATTTTAAACTGTGCTAG | 0.298
TTAGGACTGCTTCTCCTTTCGTGCTAG | 0.656
TTTGGTATCCTACTGCTTTAGTGCTAG | 0.0834
TTAGGAATCCTACTGCTTTAGTGCTAG | -0.153
TCAGCTTCCTCTTTCACACTGTGCTAG | 0.815
GACGGTATCATTATCCTGACGTGCTAG | 0.0586
TTAGGTTTCGGTTCCGTTTAGTGCTAG | 13.1
TCAGGTTTCACTTTCCAACTGTGCTAG | 9.65
CCGCATATCGGGGTGCGCCCGGTGCTA | -0.00873
TTAGAACTGAGTCCCGATTAGTGCTAG | 0.3
CTAGATTTCAGTATCGATTAGTGCTAG | 1.5

Study 2 — method: EMSA with sequencing; molecule type: double-stranded DNA, one strand shown; matrix: in vitro; concentration: 10 and 20 nM; baseline: negative control set to 0; direction: higher = stronger binding
Target: Hepatocyte nuclear factor 3-alpha (Foxa1, Mus musculus, UniProt P35582, residues 1-468, full length assumed)
Setting: whole designed probe, mean of two concentrations, ends assumed
Constant ends, left off below: GTGAGCGGTGCCCATTGATGGGGAAC … TTTCACTGGGATCGTGGGGAC
Target sequence (chain): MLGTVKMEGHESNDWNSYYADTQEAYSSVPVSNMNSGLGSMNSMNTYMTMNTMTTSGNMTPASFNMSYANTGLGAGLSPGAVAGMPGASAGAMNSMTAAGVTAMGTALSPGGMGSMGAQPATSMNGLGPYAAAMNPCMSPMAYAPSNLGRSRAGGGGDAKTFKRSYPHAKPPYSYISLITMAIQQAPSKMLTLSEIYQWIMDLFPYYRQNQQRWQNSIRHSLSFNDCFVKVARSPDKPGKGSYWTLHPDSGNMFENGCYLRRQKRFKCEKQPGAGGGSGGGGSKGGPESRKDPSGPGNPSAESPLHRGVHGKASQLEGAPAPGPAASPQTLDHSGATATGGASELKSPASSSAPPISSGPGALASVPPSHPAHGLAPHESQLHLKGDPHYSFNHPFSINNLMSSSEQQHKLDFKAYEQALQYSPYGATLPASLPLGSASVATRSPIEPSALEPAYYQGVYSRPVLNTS
Oligonucleotide | normalised bound fraction
ATCTTCCCCCTCTTCCTTGCCCCACACCACCTCGTTCCCGGGTTATTTGCAGATAGGAAAATAAATAAAGCCGGCATTCGTTAACCCTCTTCTGGCGCAAACTGCTGTTTGCTCTGGATGAATCATGGTCCTTTGGCGACGCCAGGCTCCGGGAGAGCAAAGCACCGTGTCAGGGCCATGATCCGGGGTGGCC | 0.327 ratio
CAGCCTGCCCTTTTTCTGAAATATTAGTAATTTTCTTTTTCTTTTTCCTTTTTTTTTTTTTTTTTGGACAATTAAGGGAGACTTGTCCAACTATGTAAACACAGAAAGCACTCAAGCAACAATGCCCTCGTAATTAGCAGCGGGCAGGCCGGCGTCTGGGCTGGCCCGTCAGGCGCGGCGTCAGCTGAAAGGG | 0.419 ratio
AATTTTAGGCTTTTCTACTCTCAACTTCTCTCTGAACTCAAAATTGCAGTGCACCCTCATGAATCTGAGAACAATAAGATTGGCCTAACAAAGTAAACAGGAAGAAAGAATACAATTTGGATGCAGAATATCATTCAAGAAAAACATAGTAAAAGTTATAGATAAATGTAATTACTACTCATTTGCAAAACTG | 0.291 ratio
GTGCTCAGCAGCCTTCAACATTAGGATGTGACGCACTTGGAAGCTTGCTCCTTCCTGGTTATCAGCCAAGACAGTGTTGACAGTTGATCGTTCAGTAAACATTATCTCTGCACATAGCGGTAAATGACACCGCAATAAATAAATGTTAGGGAGAAAATGCAGGCAAAACTTCACAATAAAAGCGAGGCATTTC | 0.325 ratio
CTCAGCAAGGCTTTAAGGTCCTTAAAACATGACCCACACTAACCAGCCTTAGGTTTCCACTGTCTCATAGCTCAGTTTCCACCAAAATGGGGAAAATTACCCAGAGATCTGTGCTCAGTTGGCTCTCTGCTTCTTGACTAGCTTCATTTACTGCCCATTGAAATTCTAACCCCAGGTCAAAAGCCATCTTTTC | -0.0954 ratio
TTCCGTCTGTGGTCTATAGCGTTGCCTCTTGCCTTTTTACAAGGAAGAAAAACTTGTATAAACATCATGATTCATGGGTTTTAATCACTTTAGGTAAACAGTGCTGCCAGATGATCCTGGTTTGCAGATTCAGGACATGAAATCCTTCAACTGACACTGAGATTTGTTTAGAGTTGATGGTGGGAGAAGAGAG | 0.312 ratio
CTGTGTGATGTGGTAATCTAAATTTGAACAGATGCCCCGCATGTTATGTCAATATTTGAATTGCTATTATGGCTATGAATCAATATTTCTTTGTAATCTTCCTTATTTCAAGTGGCTTGAATCACAGCCCTATGGTTAAATACACAGACTGTAGTTTAACTGCCTGATTTCATAACCCAACTCCAGCATTCAC | 0.406 ratio
ATGCATACATCTACCACATGTATTAATAAGCATATATTTATTATAAAGCCAATTGAGATTTTATATCTCAGACATAAATTTCATTATTTTTATGTTTACTTTGAAAGATATAGTAATATTTTTGAAAAACTATTAACTAGTTGAATCATAAAAATGGAAATAAATGTAAAATTTTTTTGTTGTTAAACTAGTT | 0.44 ratio

Study 3 — method: protein binding microarray; molecule type: double-stranded DNA, one strand shown; matrix: in vitro; concentration: not given; baseline: not given; direction: higher = stronger binding
Target: Histone acetyltransferase KAT6A, winged helix 2, GST fusion (KAT6A, Homo sapiens, UniProt Q92794, residues 85-181)
Setting: 8-mer, flanks averaged, mean of 2 arrays, mostly near background
Construct (chain): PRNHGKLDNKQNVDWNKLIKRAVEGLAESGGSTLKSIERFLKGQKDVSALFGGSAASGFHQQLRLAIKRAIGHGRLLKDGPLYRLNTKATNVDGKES
Oligonucleotide | E-score
GAATTGCC | -0.0376
AACTAAAA | 0.0604
CGCAGGCC | 0.192
GTATATTA | -0.0138
TAATGCCA | 0.0154
AGTCCAAA | 0.028
GCAGATCC | 0.114
AGATGAAT | -0.09
GAAAGTTA | 0.0631
CGAGACTA | -0.116
AGGAAGGG | -0.0695
AGGCTCCG | 0.0788
GTATCAGA | 0.00186
CCACACGG | 0.149
AATGAGGG | -0.169
ACTGAGGG | -0.182
GTTGGCAA | -0.103
CGGCATAG | 0.00711
ATTAGGGC | -0.0448
AGAGTACA | -0.00809

Study 4 — method: RNA Bind-n-Seq; molecule type: RNA; matrix: in vitro; concentration: not given; baseline: input RNA pool; direction: higher = stronger binding
Target: RING finger protein unkempt homolog, zinc fingers 1-6, GST-SBP tag (UNK, Homo sapiens, UniProt Q9C0B0, residues 30-357)
Sequence of UniProt Q9C0B0 (30-357, looked up): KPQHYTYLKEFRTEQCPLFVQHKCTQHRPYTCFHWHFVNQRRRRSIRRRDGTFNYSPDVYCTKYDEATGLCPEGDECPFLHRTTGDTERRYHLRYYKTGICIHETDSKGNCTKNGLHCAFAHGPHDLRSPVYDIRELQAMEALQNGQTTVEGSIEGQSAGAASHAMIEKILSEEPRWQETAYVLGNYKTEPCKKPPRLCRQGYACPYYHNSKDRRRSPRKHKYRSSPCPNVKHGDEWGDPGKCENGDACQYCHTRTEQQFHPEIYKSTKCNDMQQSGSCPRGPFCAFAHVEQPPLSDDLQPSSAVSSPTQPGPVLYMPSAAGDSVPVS
Setting: RNA with constant flanks, human and mouse sites, ends assumed
Constant ends, left off below: GGGAGUUCUACAGUCCGACGAUC … CAACAGAGGAUUGAGCAUCA
Oligonucleotide | bound/input enrichment [ratio]
UUCCUAAUAGAUACUAGAUUGUAUUGAAUUCUGUUUUAAUUAUUCUCUAGGUAAGUAUGUUUUAGGAUUAAAUACCUUUUACAGAUACUGAAAGUGCCUCCUUUUGUGGUGUAAAAAACA | 1.46
CACCCUACUCUGGGUGCCAGUGUGCUUCAUAUCACUGAAAACGGGCCAACUGAAGUGGACUAUAGUCCCUCUGAUAUCCAGGACUCUAGUUUGUCGCAUAAGAUCCCGCCAACGGAAGAG | 0.177
UGGGAGUUCAGGUGUGCAAAGAGCUAUCAGAAAACCUAACUAGGUGUGUGGCUUAGUGGCACAAAUACAUUCACAUUGUGUAACUGUCACCACCUGUUUAAAAUUACAAAAACUUUCCUU | 0.165
AUCAUAAAAUACAUUGUCAACCGAGGAGAACACAAGAAUGGAGUUCUGGAAGAGGCAAUAAUAGCAACAAUUCUUAAAGAGGUUUUGGAAGGCUUAGACUAUCUACACAGAAACGGUCAG | 0.843
AUGGUUGAACUCAACGGAAAUCAGCCCAUGGAGAUCAAAGUCCUGGGUCCUUAUACCUUUAGCAUCUGUGACACCUCCAACUUCUCCGACUACAUCCGUGGAGGCAUCGUCAGUCAGGUC | 0.208
CCAGGGGCCCCUCGCCUCCCCUCUGAGGACCGAAGAUGAGCUUCCUCUUCAGCAGCCGCUCUUCUAAAACAUUCAAACCAAAGAAGAAUAUCCCUGAAGGAUCUCAUCAGUAUGAACUCU | 0.31
CGGCCCCGUGACCCUAGUCGGCCGCUGAGAGGCGCGCGGAGUCUGGGCCGCUGCCGUCUAGGGGUCCCGUCCCGAGGCGUCCCCGGCAUCUCCGGCCCGAAUCCCGGAGUGCCGGGUCGC | 0.227
UUUCUUGUUUUUCUUUCUCCCCCCCCCCCCCUUCAGUUAACUACUUUUUAAUUGCAAUUCUAGGUAAUUGUGCAUCGUGAUGUGAUUGCUUGGCUAUUGUCUGAAUAUUUCCUUUUAAUU | 0.962
UACAUCACCAAUGUUCUACAAAAUCCUGAUUUGGCUCUGAGAAUGGCUGUACGUAAUAACUUAGCCGGUGCUGAAGAACUCUUUGCCCGGAAAUUUAAUGCUCUUUUUGCCCAGGGAAAU | 0.326
UCUGGAUCCAAAUGUUCAGAAAUGGGAUGUAACAGUAUUAGAACUCAGCUAUCACAAACGUCAUUUGGAUAGACCAGUGUUCUUACGGUUUUGGGAAACAUUGGACAGGUACAUGGUAAA | 0.271
AAGCACUUUCAGCAGGCAAAAAUGAUCCUUGAAAAUAUCCCCAAUCCAGACCGUGAGGUCAGUAGAAUCCUGAAGGUUGCCAAGCCCAACUUUGUGGUUAUGAAGCUCUUAGCAGGAGGA | 0.406

Excerpt of the above (study 4):
Oligonucleotide | bound/input enrichment [ratio]
AUGGUUGAACUCAACGGAAAUCAGCCCAUGGAGAUCAAAGUCCUGGGUCCUUAUACCUUUAGCAUCUGUGACACCUCCAACUUCUCCGACUACAUCCGUGGAGGCAUCGUCAGUCAGGUC | 0.208
CCAGGGGCCCCUCGCCUCCCCUCUGAGGACCGAAGAUGAGCUUCCUCUUCAGCAGCCGCUCUUCUAAAACAUUCAAACCAAAGAAGAAUAUCCCUGAAGGAUCUCAUCAGUAUGAACUCU | 0.31
CGGCCCCGUGACCCUAGUCGGCCGCUGAGAGGCGCGCGGAGUCUGGGCCGCUGCCGUCUAGGGGUCCCGUCCCGAGGCGUCCCCGGCAUCUCCGGCCCGAAUCCCGGAGUGCCGGGUCGC | 0.227
UUUCUUGUUUUUCUUUCUCCCCCCCCCCCCCUUCAGUUAACUACUUUUUAAUUGCAAUUCUAGGUAAUUGUGCAUCGUGAUGUGAUUGCUUGGCUAUUGUCUGAAUAUUUCCUUUUAAUU | 0.962
UACAUCACCAAUGUUCUACAAAAUCCUGAUUUGGCUCUGAGAAUGGCUGUACGUAAUAACUUAGCCGGUGCUGAAGAACUCUUUGCCCGGAAAUUUAAUGCUCUUUUUGCCCAGGGAAAU | 0.326
UCUGGAUCCAAAUGUUCAGAAAUGGGAUGUAACAGUAUUAGAACUCAGCUAUCACAAACGUCAUUUGGAUAGACCAGUGUUCUUACGGUUUUGGGAAACAUUGGACAGGUACAUGGUAAA | 0.271
